Results of several laboratories.
Parts stem from different laboratories: compare values within a part only. Values joined by “and” are separate records of one study, mostly repeats; a detail may differ.
Chain of UniProt P11802 (whole entry, looked up): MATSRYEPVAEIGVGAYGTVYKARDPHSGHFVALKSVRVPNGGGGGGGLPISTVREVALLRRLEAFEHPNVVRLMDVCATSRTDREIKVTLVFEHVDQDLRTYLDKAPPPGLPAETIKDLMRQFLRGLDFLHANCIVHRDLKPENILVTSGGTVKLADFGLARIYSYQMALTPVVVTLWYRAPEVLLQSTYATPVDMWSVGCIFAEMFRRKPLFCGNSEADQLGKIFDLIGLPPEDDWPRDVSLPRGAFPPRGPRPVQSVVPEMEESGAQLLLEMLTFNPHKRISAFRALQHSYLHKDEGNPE
Chain of UniProt P31751 (whole entry, looked up): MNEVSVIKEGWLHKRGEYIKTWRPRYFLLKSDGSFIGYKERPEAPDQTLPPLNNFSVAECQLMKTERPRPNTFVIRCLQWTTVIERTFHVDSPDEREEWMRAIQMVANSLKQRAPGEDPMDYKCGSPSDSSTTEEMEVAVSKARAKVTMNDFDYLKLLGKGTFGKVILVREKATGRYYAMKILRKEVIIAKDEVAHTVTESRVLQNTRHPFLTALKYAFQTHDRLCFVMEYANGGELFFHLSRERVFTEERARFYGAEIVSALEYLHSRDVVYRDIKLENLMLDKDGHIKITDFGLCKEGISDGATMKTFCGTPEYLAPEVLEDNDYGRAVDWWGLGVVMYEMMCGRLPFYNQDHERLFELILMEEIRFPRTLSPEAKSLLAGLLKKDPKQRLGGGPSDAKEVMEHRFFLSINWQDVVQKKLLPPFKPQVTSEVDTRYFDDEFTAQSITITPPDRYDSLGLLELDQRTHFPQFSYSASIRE
Chain of UniProt Q8N5S9 (whole entry, looked up): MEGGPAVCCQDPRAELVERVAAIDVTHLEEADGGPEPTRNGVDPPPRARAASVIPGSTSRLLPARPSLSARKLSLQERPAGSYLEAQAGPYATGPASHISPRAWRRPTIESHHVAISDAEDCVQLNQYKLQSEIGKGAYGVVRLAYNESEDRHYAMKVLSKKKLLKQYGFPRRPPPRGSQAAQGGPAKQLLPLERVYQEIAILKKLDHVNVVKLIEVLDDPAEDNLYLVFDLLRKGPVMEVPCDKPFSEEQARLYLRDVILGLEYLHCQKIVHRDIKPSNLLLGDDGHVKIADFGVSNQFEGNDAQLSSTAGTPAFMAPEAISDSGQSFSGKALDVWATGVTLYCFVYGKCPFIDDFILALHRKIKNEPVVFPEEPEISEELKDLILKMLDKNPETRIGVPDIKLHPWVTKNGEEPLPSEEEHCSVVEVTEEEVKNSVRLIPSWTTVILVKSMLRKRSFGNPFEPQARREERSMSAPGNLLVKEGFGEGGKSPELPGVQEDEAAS
Chain of UniProt P29597 (whole entry, looked up): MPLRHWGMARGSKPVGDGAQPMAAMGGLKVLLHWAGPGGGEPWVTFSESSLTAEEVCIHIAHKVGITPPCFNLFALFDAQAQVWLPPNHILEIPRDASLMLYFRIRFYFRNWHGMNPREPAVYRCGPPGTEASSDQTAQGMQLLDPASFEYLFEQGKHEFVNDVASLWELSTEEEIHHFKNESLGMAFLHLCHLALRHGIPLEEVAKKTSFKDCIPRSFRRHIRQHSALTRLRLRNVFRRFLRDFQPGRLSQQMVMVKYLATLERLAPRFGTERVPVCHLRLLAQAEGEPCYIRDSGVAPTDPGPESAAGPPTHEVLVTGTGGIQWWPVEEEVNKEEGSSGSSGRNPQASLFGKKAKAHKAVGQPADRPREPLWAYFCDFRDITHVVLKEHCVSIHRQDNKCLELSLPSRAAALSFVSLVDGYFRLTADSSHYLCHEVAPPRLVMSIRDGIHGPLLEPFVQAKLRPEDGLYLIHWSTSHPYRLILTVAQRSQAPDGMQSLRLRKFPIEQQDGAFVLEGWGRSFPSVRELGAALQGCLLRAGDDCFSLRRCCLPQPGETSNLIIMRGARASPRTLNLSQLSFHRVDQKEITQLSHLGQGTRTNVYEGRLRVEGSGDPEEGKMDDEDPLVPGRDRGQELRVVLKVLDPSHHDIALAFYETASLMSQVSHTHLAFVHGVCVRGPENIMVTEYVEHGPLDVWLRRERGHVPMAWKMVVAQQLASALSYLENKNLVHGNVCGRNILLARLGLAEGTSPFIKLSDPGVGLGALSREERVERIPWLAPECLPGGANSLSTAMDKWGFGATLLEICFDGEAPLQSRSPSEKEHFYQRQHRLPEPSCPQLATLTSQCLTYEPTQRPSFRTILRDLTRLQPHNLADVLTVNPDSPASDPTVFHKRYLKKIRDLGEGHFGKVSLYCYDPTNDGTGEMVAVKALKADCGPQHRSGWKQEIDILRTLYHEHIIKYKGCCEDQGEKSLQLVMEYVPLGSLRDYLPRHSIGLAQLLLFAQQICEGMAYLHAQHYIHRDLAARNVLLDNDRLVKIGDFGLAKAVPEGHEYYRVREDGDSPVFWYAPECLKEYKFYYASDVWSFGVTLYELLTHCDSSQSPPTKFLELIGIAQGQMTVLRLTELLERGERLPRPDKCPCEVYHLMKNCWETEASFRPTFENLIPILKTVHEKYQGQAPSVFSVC
Chain of UniProt Q9P2K8 (whole entry, unmodified, looked up): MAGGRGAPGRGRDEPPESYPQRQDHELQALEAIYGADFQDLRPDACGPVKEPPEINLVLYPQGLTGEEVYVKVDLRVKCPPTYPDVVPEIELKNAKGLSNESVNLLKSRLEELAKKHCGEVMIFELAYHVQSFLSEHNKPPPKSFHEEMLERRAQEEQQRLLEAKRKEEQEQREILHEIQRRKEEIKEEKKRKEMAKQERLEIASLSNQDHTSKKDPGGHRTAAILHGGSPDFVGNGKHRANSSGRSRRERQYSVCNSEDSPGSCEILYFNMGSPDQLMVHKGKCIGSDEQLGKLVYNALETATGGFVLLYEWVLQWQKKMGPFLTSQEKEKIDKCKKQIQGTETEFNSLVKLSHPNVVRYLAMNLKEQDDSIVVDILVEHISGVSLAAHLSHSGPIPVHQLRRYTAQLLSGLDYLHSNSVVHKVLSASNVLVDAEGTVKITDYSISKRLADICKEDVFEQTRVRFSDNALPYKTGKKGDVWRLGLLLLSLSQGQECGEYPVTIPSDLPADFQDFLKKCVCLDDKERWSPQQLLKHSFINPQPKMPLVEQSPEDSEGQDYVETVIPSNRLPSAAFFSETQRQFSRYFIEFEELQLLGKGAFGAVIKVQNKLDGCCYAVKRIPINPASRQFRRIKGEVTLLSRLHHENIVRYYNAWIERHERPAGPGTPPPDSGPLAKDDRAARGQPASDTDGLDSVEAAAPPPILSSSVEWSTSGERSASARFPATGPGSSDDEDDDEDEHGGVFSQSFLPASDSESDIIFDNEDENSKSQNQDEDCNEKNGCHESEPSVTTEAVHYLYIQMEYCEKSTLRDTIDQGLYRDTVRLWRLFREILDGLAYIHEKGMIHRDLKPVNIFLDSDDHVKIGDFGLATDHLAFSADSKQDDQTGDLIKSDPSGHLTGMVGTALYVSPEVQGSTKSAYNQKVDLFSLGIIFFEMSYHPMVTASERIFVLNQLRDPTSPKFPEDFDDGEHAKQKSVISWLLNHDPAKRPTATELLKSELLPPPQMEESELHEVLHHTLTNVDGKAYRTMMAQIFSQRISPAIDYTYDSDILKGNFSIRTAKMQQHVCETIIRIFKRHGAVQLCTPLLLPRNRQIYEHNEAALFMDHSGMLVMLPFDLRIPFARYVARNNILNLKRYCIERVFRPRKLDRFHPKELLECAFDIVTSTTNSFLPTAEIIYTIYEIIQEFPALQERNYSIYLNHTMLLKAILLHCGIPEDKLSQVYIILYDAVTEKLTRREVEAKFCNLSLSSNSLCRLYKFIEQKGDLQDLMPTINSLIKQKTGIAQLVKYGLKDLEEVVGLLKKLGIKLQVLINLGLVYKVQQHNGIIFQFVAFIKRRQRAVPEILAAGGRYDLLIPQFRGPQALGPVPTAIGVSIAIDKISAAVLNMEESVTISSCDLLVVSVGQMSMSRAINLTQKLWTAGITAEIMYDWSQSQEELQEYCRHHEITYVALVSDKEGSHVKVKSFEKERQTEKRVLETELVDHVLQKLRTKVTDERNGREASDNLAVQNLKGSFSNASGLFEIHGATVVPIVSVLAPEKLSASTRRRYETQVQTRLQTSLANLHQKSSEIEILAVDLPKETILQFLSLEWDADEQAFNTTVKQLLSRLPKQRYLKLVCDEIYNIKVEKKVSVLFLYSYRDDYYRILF
Chain of UniProt Q92630 (whole entry, looked up): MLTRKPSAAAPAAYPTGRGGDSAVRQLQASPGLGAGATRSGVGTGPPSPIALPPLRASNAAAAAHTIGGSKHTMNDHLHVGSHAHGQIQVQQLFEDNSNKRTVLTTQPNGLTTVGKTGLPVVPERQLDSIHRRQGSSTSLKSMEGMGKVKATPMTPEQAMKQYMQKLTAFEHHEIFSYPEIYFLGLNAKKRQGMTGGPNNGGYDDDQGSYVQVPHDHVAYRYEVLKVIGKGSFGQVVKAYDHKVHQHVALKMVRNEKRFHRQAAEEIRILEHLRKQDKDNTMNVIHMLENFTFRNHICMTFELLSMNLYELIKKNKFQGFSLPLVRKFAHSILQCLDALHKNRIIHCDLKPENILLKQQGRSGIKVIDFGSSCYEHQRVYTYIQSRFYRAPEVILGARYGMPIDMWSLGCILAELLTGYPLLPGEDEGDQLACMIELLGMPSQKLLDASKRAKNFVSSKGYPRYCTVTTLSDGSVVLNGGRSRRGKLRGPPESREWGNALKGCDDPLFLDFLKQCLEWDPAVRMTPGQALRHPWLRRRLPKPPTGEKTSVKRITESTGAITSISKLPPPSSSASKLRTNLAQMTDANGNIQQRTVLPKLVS
Chain of UniProt P19784 (whole entry, looked up): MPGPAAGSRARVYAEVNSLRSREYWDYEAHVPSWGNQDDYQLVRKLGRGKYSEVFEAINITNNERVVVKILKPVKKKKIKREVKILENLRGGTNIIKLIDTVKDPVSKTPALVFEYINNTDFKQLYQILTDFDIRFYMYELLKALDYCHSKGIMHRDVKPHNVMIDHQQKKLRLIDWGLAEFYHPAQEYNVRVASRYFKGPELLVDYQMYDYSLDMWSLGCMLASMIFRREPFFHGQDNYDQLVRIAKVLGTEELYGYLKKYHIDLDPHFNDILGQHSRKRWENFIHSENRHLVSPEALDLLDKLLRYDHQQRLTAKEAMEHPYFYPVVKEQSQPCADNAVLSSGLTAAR

Block 1
Structure (SMILES): COc1cc(-c2nc3ccc(C(=O)NCCCN(C)C)cc3n2C2CCC2)cc(OC)c1OC
target	read-out	technique	tested at	remaining binding
Serine/threonine-protein kinase TAO3 (TAOK3, Homo sapiens, UniProt Q9H2K8)	binding	competition with immobilised ligand	1 µM	100%
Epithelial discoidin domain-containing receptor 1 (DDR1, Homo sapiens, UniProt Q08345)	binding	competition with immobilised ligand	1 µM	73%
5'-AMP-activated protein kinase catalytic subunit alpha-1 (PRKAA1, Homo sapiens, UniProt Q13131)	binding	competition with immobilised ligand	1 µM	100%
Calcium/calmodulin-dependent protein kinase type II subunit delta (CAMK2D, Homo sapiens, UniProt Q13557)	binding	competition with immobilised ligand	1 µM	84%
Interleukin-1 receptor-associated kinase 1 (IRAK1, Homo sapiens, UniProt P51617)	binding	competition with immobilised ligand	1 µM	70%
Fibroblast growth factor receptor 3 (FGFR3, Homo sapiens, UniProt P22607)	binding	competition with immobilised ligand	1 µM	96%
Phosphatidylinositol 4,5-bisphosphate 3-kinase catalytic subunit alpha isoform (PIK3CA, Homo sapiens, UniProt P42336, H1047L)	binding	competition with immobilised ligand	1 µM	63%
RAC-beta serine/threonine-protein kinase (AKT2, Homo sapiens, UniProt P31751)	binding	competition with immobilised ligand	1 µM	97%
Ephrin type-B receptor 4 (EPHB4, Homo sapiens, UniProt P54760)	binding	competition with immobilised ligand	1 µM	100%
Hepatocyte growth factor receptor (MET, Homo sapiens, UniProt P08581, Y1235D)	binding	competition with immobilised ligand	1 µM	100%
Calcium/calmodulin-dependent protein kinase kinase 1 (CAMKK1, Homo sapiens, UniProt Q8N5S9)	binding	competition with immobilised ligand	1 µM	97%
Receptor-type tyrosine-protein kinase FLT3 (FLT3, Homo sapiens, UniProt P36888, K663Q)	binding	competition with immobilised ligand	1 µM	70%
Phosphatidylinositol 5-phosphate 4-kinase type-2 gamma (PIP4K2C, Homo sapiens, UniProt Q8TBX8)	binding	competition with immobilised ligand	1 µM	100%
Protein-tyrosine kinase 2-beta (PTK2B, Homo sapiens, UniProt Q14289)	binding	competition with immobilised ligand	1 µM	65%
Receptor-type tyrosine-protein kinase FLT3, autoinhibited (FLT3, Homo sapiens, UniProt P36888)	binding	competition with immobilised ligand	1 µM	93%
Insulin receptor (INSR, Homo sapiens, UniProt P06213)	binding	competition with immobilised ligand	1 µM	93%
Ephrin type-B receptor 2 (EPHB2, Homo sapiens, UniProt P29323)	binding	competition with immobilised ligand	1 µM	97%
Cyclin-dependent kinase 4, with cyclin D1 (CDK4, Homo sapiens, UniProt P11802)	binding	competition with immobilised ligand	1 µM	85%
Casein kinase I isoform gamma-2 (CSNK1G2, Homo sapiens, UniProt P78368)	binding	competition with immobilised ligand	1 µM	91%
Tyrosine-protein kinase receptor TYRO3 (TYRO3, Homo sapiens, UniProt Q06418)	binding	competition with immobilised ligand	1 µM	90%
Proto-oncogene tyrosine-protein kinase receptor Ret (RET, Homo sapiens, UniProt P07949)	binding	competition with immobilised ligand	1 µM	100%
Mitogen-activated protein kinase kinase kinase 6 (MAP3K6, Homo sapiens, UniProt O95382)	–	KINOMEscan	1000 nM	91%

Block 2
Compound: CCC1(c2cccc(-c3cn(C)nc3C)c2)C2=C(Nc3n[nH]cc31)C(F)C(C)(C)CC2=O (single isomer, unassigned)
Tested at: 1 µM
target	read-out	technique	relative to	remaining binding
Ribosomal protein S6 kinase alpha-5, C-terminal kinase domain (RPS6KA5, Homo sapiens, UniProt O75582)	binding	competition with immobilised ligand	–	100%
RAC-beta serine/threonine-protein kinase (AKT2, Homo sapiens, UniProt P31751)	kinase binding	KINOMEscan	DMSO control	100%
Mitogen-activated protein kinase kinase kinase 5 (MAP3K5, Homo sapiens, UniProt Q99683)	binding	competition with immobilised ligand	–	95%
Casein kinase II subunit alpha' (CSNK2A2, Homo sapiens, UniProt P19784)	binding	competition with immobilised ligand	–	95%
Serine/threonine-protein kinase RIO3 (RIOK3, Homo sapiens, UniProt O14730)	binding	competition with immobilised ligand	–	95%
Epidermal growth factor receptor (EGFR, Homo sapiens, UniProt P00533)	kinase binding	KINOMEscan	DMSO control	100%
Cyclin-dependent kinase-like 2 (CDKL2, Homo sapiens, UniProt Q92772)	kinase binding	KINOMEscan	DMSO control	100%
Fibroblast growth factor receptor 1 (FGFR1, Homo sapiens, UniProt P11362)	kinase binding	KINOMEscan	DMSO control	100%
eIF-2-alpha kinase GCN2 (EIF2AK4, Homo sapiens, UniProt Q9P2K8, S808G)	kinase binding	KINOMEscan	DMSO control	95%
Mitogen-activated protein kinase 10 (MAPK10, Homo sapiens, UniProt P53779)	kinase binding	KINOMEscan	DMSO control	98%
Dual specificity mitogen-activated protein kinase kinase 5 (MAP2K5, Homo sapiens, UniProt Q13163)	binding	competition with immobilised ligand	–	76%
Cyclin-dependent kinase 4, with cyclin D3 (CDK4, Homo sapiens, UniProt P11802)	kinase binding	KINOMEscan	DMSO control	100%
Dual specificity tyrosine-phosphorylation-regulated kinase 2 (DYRK2, Homo sapiens, UniProt Q92630)	kinase binding	KINOMEscan	DMSO control	82%
ALK tyrosine kinase receptor (ALK, Homo sapiens, UniProt Q9UM73, C1156Y)	binding	competition with immobilised ligand	–	89%
Non-receptor tyrosine-protein kinase TYK2, JH1 domain (TYK2, Homo sapiens, UniProt P29597)	kinase binding	KINOMEscan	DMSO control	100%
Serine/threonine-protein kinase MRCK gamma (CDC42BPG, Homo sapiens, UniProt Q6DT37)	–	KINOMEscan	–	91%
Mitogen-activated protein kinase kinase kinase 4 (MAP3K4, Homo sapiens, UniProt Q9Y6R4)	kinase binding	KINOMEscan	DMSO control	100%
SRSF protein kinase 2 (SRPK2, Homo sapiens, UniProt P78362)	binding	competition with immobilised ligand	–	88%
TRAF2 and NCK-interacting protein kinase (TNIK, Homo sapiens, UniProt Q9UKE5)	binding	competition with immobilised ligand	–	96%
Serine/threonine-protein kinase B-raf (BRAF, Homo sapiens, UniProt P15056, V600E)	kinase binding	KINOMEscan	DMSO control	100%

Block 3
Target: GTPase KRas, GDP-bound (KRAS, Homo sapiens, UniProt P01116, G12D)
Action: binder
Technique: multi-cycle SPR
Setting: binary, without VCB
Structure (SMILES)	dissociation rate constant (kd)
Cc1ncsc1-c1ccc(C(CO)NC(=O)C2CC(O)CN2C(=O)C(C(C)C)n2cc(-c3ccc(COc4c(-c5c(C)c(F)cc6[nH]ncc56)c(C5CC5)cc5c(N6CC7CC6CN7)nc(OC6CCOCC6)nc45)cc3)nn2)cc1 (stereo not shown)	0.00398 s⁻¹ and 0.00355 s⁻¹ and 0.00345 s⁻¹ and 0.00348 s⁻¹ and 0.00262 s⁻¹
Cc1ncsc1-c1ccc(C2(NC(=O)C3CC(O)CN3C(=O)C(NC(=O)c3ccc(COc4c(-c5c(C)c(F)cc6[nH]ncc56)c(C5CC5)cc5c(N6CC7CC6CN7)nc(OC6CCOCC6)nc45)cc3)C(C)C)CC2)cc1 (stereo not shown)	0.00565 s⁻¹ and 0.00799 s⁻¹ and 0.00922 s⁻¹ and 0.00949 s⁻¹ and 0.00936 s⁻¹
Cc1ncsc1-c1ccc(C(CO)NC(=O)C2CC(O)CN2C(=O)C(NC(=O)c2ccc(COc3c(-c4c(C)c(F)cc5[nH]ncc45)c(C4CC4)cc4c(N5CC6CC5CN6)nc(OC5CCOCC5)nc34)cc2)C(C)C)cc1 (stereo not shown)	0.00715 s⁻¹ and 0.00605 s⁻¹ and 0.00466 s⁻¹ and 0.00632 s⁻¹ and 0.00804 s⁻¹

Block 4
SMILES: Cc1ccc(O)c(C)c1-c1cnc2[nH]c(-c3cnc(N4CCC(CN5CCN(c6cc7c(cc6F)n(C6CCC(=O)NC6=O)c(=O)n7C)CC5)CC4)nc3)cc2c1C#N (stereo not shown)
Target: Membrane-associated tyrosine- and threonine-specific cdc2-inhibitory kinase (PKMYT1, Homo sapiens, UniProt Q99640)
Residues (Q99640 1-499): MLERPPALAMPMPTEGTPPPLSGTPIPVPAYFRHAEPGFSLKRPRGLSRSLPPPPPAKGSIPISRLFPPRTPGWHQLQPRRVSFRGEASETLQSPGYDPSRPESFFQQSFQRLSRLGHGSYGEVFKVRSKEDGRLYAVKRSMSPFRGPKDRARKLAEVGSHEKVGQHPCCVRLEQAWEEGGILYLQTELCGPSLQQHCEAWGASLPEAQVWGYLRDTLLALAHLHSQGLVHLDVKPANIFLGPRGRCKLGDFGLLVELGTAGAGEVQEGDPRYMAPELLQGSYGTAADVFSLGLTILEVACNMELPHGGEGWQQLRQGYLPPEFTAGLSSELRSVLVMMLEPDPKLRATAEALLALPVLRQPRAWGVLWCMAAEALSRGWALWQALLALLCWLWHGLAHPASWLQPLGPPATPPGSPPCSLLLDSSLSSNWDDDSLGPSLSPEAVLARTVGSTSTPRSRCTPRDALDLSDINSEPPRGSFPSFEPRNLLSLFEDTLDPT
read-out	action	technique	tested at	inhibition [%]
cell-free assay	inhibitor	TR-FRET	0.1111 µM	99
–	–	–	0.000152 µM	3.37
–	–	–	0.3333 µM	99.4
cell-free assay	inhibitor	TR-FRET	460 pM	7.25
–	–	–	0.00137 µM	22.8
–	–	–	1 µM	100
–	–	–	0.1111 µM	98.5
cell-free assay	inhibitor	TR-FRET	0.3333 µM	99.9
–	–	–	5.1e-05 µM	0.045
cell-free assay	inhibitor	TR-FRET	1.37 nM	21.5

For quick reference, copied from above (block 1):
target	read-out	technique	tested at	remaining binding
Fibroblast growth factor receptor 3 (FGFR3, Homo sapiens, UniProt P22607)	binding	competition with immobilised ligand	1 µM	96%
Phosphatidylinositol 4,5-bisphosphate 3-kinase catalytic subunit alpha isoform (PIK3CA, Homo sapiens, UniProt P42336, H1047L)	binding	competition with immobilised ligand	1 µM	63%
RAC-beta serine/threonine-protein kinase (AKT2, Homo sapiens, UniProt P31751)	binding	competition with immobilised ligand	1 µM	97%
Ephrin type-B receptor 4 (EPHB4, Homo sapiens, UniProt P54760)	binding	competition with immobilised ligand	1 µM	100%
Hepatocyte growth factor receptor (MET, Homo sapiens, UniProt P08581, Y1235D)	binding	competition with immobilised ligand	1 µM	100%
Calcium/calmodulin-dependent protein kinase kinase 1 (CAMKK1, Homo sapiens, UniProt Q8N5S9)	binding	competition with immobilised ligand	1 µM	97%
Receptor-type tyrosine-protein kinase FLT3 (FLT3, Homo sapiens, UniProt P36888, K663Q)	binding	competition with immobilised ligand	1 µM	70%
Phosphatidylinositol 5-phosphate 4-kinase type-2 gamma (PIP4K2C, Homo sapiens, UniProt Q8TBX8)	binding	competition with immobilised ligand	1 µM	100%
Protein-tyrosine kinase 2-beta (PTK2B, Homo sapiens, UniProt Q14289)	binding	competition with immobilised ligand	1 µM	65%
